Measurements from different studies.
“And” joins repeats or separate records; there may be more than shown. ± gives the spread as reported.

Structure (SMILES) | assay | system | setting | Tmax
CNC(=O)c1ccc(-c2cnc3ncc(Cc4ccc5ncccc5c4)n3n2)cc1F | – | Japanese patients, plasma | oral, 400 mg twice daily, cycle 1 day 15, fasting, steady state | 1.07 h
COc1ccc([C@@H](O)c2cc(-c3ncnc4cc(N5CCOCC5)ccc34)c(F)cc2Cl)nn1 | median | healthy volunteers, plasma | oral, 100 mg, fasted oral suspension | 0.5 h
CN1CC[C@@H](c2c(O)cc(O)c3c(=O)cc(-c4ccc(C(F)(F)F)cc4Cl)oc23)[C@@H]1CO | – | patients, plasma | oral, 100 mg continuous, day 1, cycle 1 | 4 h
CC[C@H](C)CCCCC(=O)N[C@@H](CCN)C(=O)N[C@H](C(=O)N[C@@H](CCN)C(=O)N[C@H]1CCNC(=O)[C@H]([C@@H](C)O)NC(=O)[C@H](CCN)NC(=O)[C@H](CCN)NC(=O)[C@H](CC(C)C)NC(=O)[C@@H](Cc2ccccc2)NC(=O)[C@H](CCN)NC1=O)[C@@H](C)O | – | long-term haemodialysis patients, plasma | IV infusion, 0.75 mg/kg, 1 h infusion, median | 1 h
CC(=O)Nc1ccc(C[C@H](NC(=O)[C@H](CO)NC(=O)[C@@H](Cc2cccnc2)NC(=O)[C@@H](Cc2ccc(Cl)cc2)NC(=O)[C@@H](Cc2ccc3ccccc3c2)NC(C)=O)C(=O)N[C@H](Cc2ccc(NC(C)=O)cc2)C(=O)N[C@@H](CC(C)C)C(=O)N[C@@H](CCCCNC(C)C)C(=O)N2CCC[C@H]2C(=O)N[C@H](C)C(N)=O)cc1 | – | healthy men, fasted, serum | oral, 20 mg single dose | 7.7 ± 16 h
C[C@@](Cc1ccc(O)c(O)c1)(NN)C(=O)O | – | Parkinson's disease patients, plasma | oral, high levodopa AUC subgroup (11.5 µmol·h/L), median | 2 h
CCCCC[C@H](O)CC[C@@H]1[C@H]2Cc3cccc(OCC(=O)O)c3C[C@H]2C[C@H]1O | LC-MS/MS | Japanese PAH patients, plasma | inhaled, 54 µg, body weight ≥56.7 kg, mean | 0.29 h
C[C@H]1CN(C(=O)CC#N)[C@]12CCN(c1ncnc3[nH]ccc13)C2 | – | healthy adults, plasma | oral, 12 mg single dose, mean | 1.1 h
CCNC(=O)[C@@H]1CCCN1C(=O)[C@H](CCCNC(=N)N)NC(=O)[C@H](CC(C)C)NC(=O)[C@@H](CC(C)C)NC(=O)[C@H](Cc1ccc(O)cc1)NC(=O)[C@H](CO)NC(=O)[C@H](Cc1c[nH]c2ccccc12)NC(=O)[C@H](Cc1c[nH]cn1)NC(=O)[C@@H]1CCC(=O)N1 | – | healthy female volunteers | oral, 4 mg single dose, fasted overnight | 2.77 ± 0.46 h
C=C(F)C(=O)N1CCN(c2nc(OC[C@@H]3CCCN3C)nc3c2CCN(c2cccc4cccc(Cl)c24)C3)C[C@@H]1CC#N | – | cancer patients, plasma | 600 mg | 5.69 h
COc1c(O)cc(C(=O)O)cc1O | – | male Ross broilers, serum | intravenous, 0.49 mg/kg gallic acid | 0.24 h
COc1cc(Nc2ncc3c(n2)-c2ccc(Cl)cc2C(c2c(F)cccc2OC)=NC3)ccc1C(=O)O | – | cancer patients, plasma | oral, 40 mg, cycle 1 day 1, together with: pembrolizumab | 3.5 h
CC(=O)c1c(C)c2cnc(Nc3ccc(N4CCNCC4)cn3)nc2n(C2CCCC2)c1=O | – | cancer patients, plasma | oral, 75 mg, cycle 1 day 15, together with: neratinib 200 mg | 5.8 h
CS(=O)(=O)c1ccc([C@@H](O)[C@@H](CF)NC(=O)C(Cl)Cl)cc1 | – | chicken (Arbor Acres), plasma | oral, 20 mg/kg, together with: quercetin 20 mg/kg pretreatment | 0.8 ± 0.11 h
C[C@H]1[C@H]2N(C(=O)CN(C)N2C(=O)NCc2ccccc2)[C@@H](Cc2ccc(OP(=O)(O)O)cc2)C(=O)N1Cc1cccc2cccnc12 | – | patients, plasma | intravenous infusion, 140 mg/m2 over 4 h, median | 1 h
CN(CCC(=O)O)C(=O)c1ccc2c(c1)CC[C@@H]1[C@@H]2CC[C@]2(C)C(c3cncc(F)c3)=CC[C@@H]12 | – | postmenopausal women, plasma | 60 mg twice daily, day 14, multiple dose, median | 2.03 h

Structure (SMILES) | assay | system | setting | Tmax
N#CC[C@H](C1CCCC1)n1cc(-c2ncnc3[nH]ccc23)cn1 | – | children, plasma | oral, after first dose, all dose levels | 1 h
CCOc1c([C@H](C)n2nc(C)c3c(N)ncnc32)cc(Cl)c(F)c1[C@@H]1CNC(=O)C1 | – | patients with indolent lymphoma, plasma | oral, 30 mg, day 15, monotherapy | 1 h
C=CC[C@@H]1/C=C(\C)C[C@H](C)C[C@H](OC)[C@H]2O[C@@](O)(C(=O)C(=O)N3CCCC[C@H]3C(=O)O[C@H](/C(C)=C/[C@@H]3CC[C@@H](O)[C@H](OC)C3)[C@H](C)[C@@H](O)CC1=O)[C@H](C)C[C@@H]2OC | – | healthy adults, whole blood | oral, median | 1.5 h and 1.75 h
Oc1ccc([C@@H](O)c2cc(-c3ncnc4cc(N5CCOCC5)ccc34)c(F)cc2Cl)nn1 | median | healthy volunteers, plasma | oral, 100 mg, fasted tablet | 1 h
CC(F)(F)c1nc2nc(CO)cc(Nc3ccc(S(F)(F)(F)(F)F)cc3)n2n1 | LC-MS/MS, non-compartmental | malaria patients | 250 mg of parent drug, median | 112 h
CO[C@H]1CC[C@H](N2C(=O)CNc3ncc(-c4ccc(C(C)(C)O)nc4)nc32)CC1 | – | patients, plasma | oral, 45 mg, day 15, median | 1.63 h
CCCCCCCCCCCCCCCC(=O)N[C@@H](CCC(=O)NCCCC[C@@H]1NC(=O)[C@H]([C@@H](C)CC)NC(=O)[C@@H](NC(=O)[C@@H]2CCCN2C(=O)[C@H](Cc2ccccc2)NC(=O)[C@H](Cc2c[nH]cn2)NC(=O)[C@@H](NC(=O)[C@H](CC(=O)O)NC(=O)CC(C)C)[C@@H](C)O)CSSC[C@@H](C(=O)N[C@@H](CCCCN)C(N)=O)NC(=O)CNC(=O)[C@H](CCCCN)NC(=O)[C@H](CO)NC(=O)[C@H](CCCNC(=N)N)NC(=O)[C@@H]2CCCN2C(=O)[C@H](CCC(=O)O)NC(=O)[C@H](Cc2ccccc2)NC1=O)C(=O)O | – | healthy volunteers, plasma | subcutaneous, 20 mg single, lyophilised formulation, median | 24 h
COc1nnc2ccc(N3CCC(c4ccc(OCCN5CCN(C)C(=O)[C@H]5C)cc4)CC3)nn12 | – | patients, plasma | oral, 20 mg twice daily, single dose, monotherapy, median | 1.02 h
C=CC(=O)NC1CCN(c2ncc3ncnc(Nc4ccc(Oc5ccc6c(c5)ncn6C)c(C)c4)c3n2)CC1 | – | healthy male volunteers, plasma | oral, 60 mg, unlabelled tablet | 2.5 h
CN[C@H](CC(C)C)C(=O)N[C@H]1C(=O)N[C@@H](CC(N)=O)C(=O)N[C@H]2C(=O)N[C@H]3C(=O)N[C@H](C(=O)N[C@H](C(=O)O)c4cc(O)cc(O)c4-c4cc3ccc4O)[C@H](O)c3ccc(c(Cl)c3)Oc3cc2cc(c3O[C@@H]2O[C@H](CO)[C@@H](O)[C@H](O)[C@H]2O[C@H]2C[C@](C)(N)[C@H](O)[C@H](C)O2)Oc2ccc(cc2Cl)[C@H]1O | – | guinea pig, tissue cage fluid | intraperitoneal, 15 mg/kg, single dose | 3 h
Cc1nn(C)cc1S(=O)(=O)NC(=O)c1ccc(-n2ccc(OCC(C)(C)C(F)(F)F)n2)nc1N1C[C@@H](C)CC1(C)C | – | human, plasma | oral, standard ETI dose | 2 h
CCc1nc(C(N)=O)c(Nc2ccc(N3CCC(N4CCN(C)CC4)CC3)c(OC)c2)nc1NC1CCOCC1 | – | Japanese patients, plasma | oral, 40 mg, cycle 1 day 28, multiple doses, median | 3.92 h
O=C(c1cccnc1-c1ccncc1)N1CCC(O)(Cc2ccccc2)CC1 | – | healthy Japanese adults, plasma | oral, 100 mg twice daily, day 7, median | 0.5 h
CCc1nc2c(C)cc(N3CCN(CC(=O)N4CC(O)C4)CC3)cn2c1N(C)c1nc(-c2ccc(F)cc2)c(C#N)s1 | – | healthy volunteers, fed, plasma | oral, 300 mg single dose, day 1, suspension | 1 h
CCCCC1=NC2(CCCC2)C(=O)N1Cc1ccc(-c2ccccc2S(=O)(=O)Nc2noc(C)c2C)c(COCC)c1 | – | healthy adult volunteers, plasma | oral, 400 mg, 14 days repeated dosing, fasted, crushed tablet | 2 h
C[C@@H](N)C1CCN(S(=O)(=O)c2cccc3cnccc23)CC1 | – | healthy volunteers, plasma | oral, across dose levels | ≤ 1 h

Some of these lines once more:
Structure (SMILES) | assay | system | setting | Tmax
CC(=O)Nc1ccc(C[C@H](NC(=O)[C@H](CO)NC(=O)[C@@H](Cc2cccnc2)NC(=O)[C@@H](Cc2ccc(Cl)cc2)NC(=O)[C@@H](Cc2ccc3ccccc3c2)NC(C)=O)C(=O)N[C@H](Cc2ccc(NC(C)=O)cc2)C(=O)N[C@@H](CC(C)C)C(=O)N[C@@H](CCCCNC(C)C)C(=O)N2CCC[C@H]2C(=O)N[C@H](C)C(N)=O)cc1 | – | healthy men, fasted, serum | oral, 20 mg single dose | 7.7 ± 16 h
C[C@@](Cc1ccc(O)c(O)c1)(NN)C(=O)O | – | Parkinson's disease patients, plasma | oral, high levodopa AUC subgroup (11.5 µmol·h/L), median | 2 h
CCCCC[C@H](O)CC[C@@H]1[C@H]2Cc3cccc(OCC(=O)O)c3C[C@H]2C[C@H]1O | LC-MS/MS | Japanese PAH patients, plasma | inhaled, 54 µg, body weight ≥56.7 kg, mean | 0.29 h
C[C@H]1CN(C(=O)CC#N)[C@]12CCN(c1ncnc3[nH]ccc13)C2 | – | healthy adults, plasma | oral, 12 mg single dose, mean | 1.1 h
